Results gathered from unrelated publications.
Numbered parts are unrelated; each lists some results of a single study.

Set 1
Target: Interferon regulatory factor 5, full length, phosphomimetic (IRF5, Homo sapiens, UniProt Q13568-2, residues 1-514, S451D/S453D/S456D/S462D)
Technique: protein-binding microarray
Molecule type: double-stranded DNA, one strand shown
Sample: in vitro
Concentration: 940 nM top
Setting: 60-bp whole probe
Together with: salmon DNA 0.4 mg/ml
Relative to: random background probes
Reading: higher = stronger binding
Shared flanks, not repeated: GCCTAGCAC … GTCTTGATTCGCTTGACGCTGCTG
Oligonucleotide	fitted relative affinity [z-score]
TTAGATTTCAGTTCCTATTAGTGCTAG	1.15
GACGGAATCGGTCTCGGGACGTGCTAG	1.23
TCATGCTTCAGGTTTACCACTGTGCTA	0.0392
TCATATACACTTATGACACTGTGCTAG	0.139
TTAGATTTCCGACTGGATTAGTGCTAG	-0.228
GACGATTTCAGTATCGAGAGGTGCTAG	2.48
ACAACTAGGGAATTTAGAAAAGTGCTA	-0.49
TTATGACTGGACTTTCGGTTAGTGCTA	2.84

Set 2
Target: Histone acetyltransferase KAT6A, winged helix 1, GST fusion (KAT6A, Homo sapiens, UniProt Q92794, residues 1-85)
Technique: protein binding microarray
Molecule type: double-stranded DNA, one strand shown
Sample: in vitro
Concentration: not given
Setting: 8-mer, flanks averaged, mean of 2 arrays, mostly near background
Relative to: not given
Reading: higher = stronger binding
Residues (chain): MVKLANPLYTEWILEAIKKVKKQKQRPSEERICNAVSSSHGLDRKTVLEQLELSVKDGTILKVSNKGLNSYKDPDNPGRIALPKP
Oligonucleotide	E-score
TATAATAA	0.0286
AGCTTTGA	-0.0905
CACGTGAC	-0.171
CAACGCAG	-0.0165
AGTTCATG	-0.208
CGCCTACC	0.211
CCTACATC	0.0157
ATCATATG	-0.0727

Set 3
Target: Replicase polyprotein 1ab, polymerase (rep, Severe acute respiratory syndrome coronavirus 2, UniProt P0DTD1)
Effect on: enzyme activity
Action: inhibitor
Concentration: 20 µM
SMILES	inhibition [%]
CS(=O)(=O)N(Cc1ccco1)CC(O)Cn1c2ccccc2c2ccccc21 (centres unmarked)	-2.89
CC(C)(C)C1CCc2c(sc(NC(=O)c3ccco3)c2C(=O)O)C1 (centres unmarked)	31.2
Cc1ccc2c(Br)cc(Br)c(OC(=O)c3ccccc3)c2n1	-13.9
CC(C)(C)c1ccc2cc(C#N)c(C#N)cc2c1	0.12
CN1CCN(C(=O)O[C@H]2c3nccnc3C(=O)N2c2ccc(Cl)cn2)CC1	-1
O=C1NC(=O)/C(=C/c2ccc(-c3ccc(F)cc3O)o2)S1	13.9
CN(C(=O)Cc1ccccc1)[C@H](CN1CCCC1)c1ccccc1	4.18
c1ccc(N2CCN(CCCOc3ccc4c(c3)OCO4)CC2)cc1	5.11
O=C1OCCN1/N=C/c1ccc([N+](=O)[O-])o1	17.2
CN1CCC(c2c[nH]c3ccc(O)cc23)CC1	-2.74
C[N+](C)(C)[C@@H](Cc1c[nH]c(=S)[nH]1)C(=O)[O-]	-0.64
CC(=O)OCC1=C(C(=O)O)N2C(=O)[C@@H](NC(=O)CCCC(N)C(=O)O)C2SC1 (some centres unmarked)	3.78
COc1ccc(/C=C/C(=O)Nc2ccccc2C(=O)O)cc1OC	9.3
CCCCCCCCN[C@@H](C)[C@H](O)c1ccc(SC(C)C)cc1 (racemic)	26.4
CC(N)[C@]12C[C@H]3C[C@H](C[C@H](C3)C1)C2 (some centres unmarked)	5.04
CN(C)CCCN1c2ccccc2Sc2ccccc21	21.6
NC(=O)C[S@@+]([O-])C(c1ccccc1)c1ccccc1	-11.3
C[N+]1(C)[C@@H]2CC[C@H]1C[C@@H](OC(=O)C(CO)c1ccccc1)C2 (some centres unmarked)	-11.3
C[C@H](NC[C@H](O)CP(=O)(O)CC1CCCCC1)c1ccc(Cl)c(Cl)c1	-10
O[C@H]1[C@H]2[C@H](O)CCCN2C[C@H]1O	-0.11
CCOC(=O)/C=C(C)/C=C/C=C(C)/C=C/c1c(C)cc(OC)c(C)c1C	-8.25
O=C(Nc1cccc(Cl)c1)Nc1ncc(CCNc2ncnc3ccsc23)s1	5.63
Clc1ccccc1CN1CCc2sccc2C1	12.7
c1ccc2c(c1)CCCc1cc(NCCN3CCOCC3)nnc1-2	-0.61
C/C(=C\c1csc(C)n1)[C@@H]1C[C@@H]2O[C@]2(C)CCC[C@H](C)[C@H](O)[C@@H](C)C(=O)C(C)(C)[C@@H](O)CC(=O)N1	-4.44

Set 4
Target: Centromere-binding protein 1, full length, His-tagged (CBF1, Saccharomyces cerevisiae, UniProt P17106, residues 1-351)
UniProt P17106, sequence (whole entry, looked up): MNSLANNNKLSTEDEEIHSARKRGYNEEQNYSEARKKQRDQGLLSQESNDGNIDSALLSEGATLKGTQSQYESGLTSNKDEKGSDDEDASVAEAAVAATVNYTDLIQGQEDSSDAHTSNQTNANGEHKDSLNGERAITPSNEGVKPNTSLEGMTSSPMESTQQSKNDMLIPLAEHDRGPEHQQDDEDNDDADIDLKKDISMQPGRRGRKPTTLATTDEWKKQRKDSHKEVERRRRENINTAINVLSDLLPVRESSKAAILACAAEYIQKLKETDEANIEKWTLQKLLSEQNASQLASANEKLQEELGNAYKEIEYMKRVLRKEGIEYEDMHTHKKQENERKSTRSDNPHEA
Technique: competition protein-binding microarray
Molecule type: double-stranded DNA, one strand shown
Sample: in vitro
Concentration: 2 µM
Setting: whole 60-bp probe, lowest competitor level
Together with: Pho4 competitor, 0.05 µM
Reading: higher = stronger binding
Oligonucleotide	fluorescence intensity [a.u.]
CGTCCTAGTGATTTTCACGTGTTCTCCATGAGGAAGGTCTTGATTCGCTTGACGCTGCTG	1410
CTAACGAAGGTTTGGCCTGTGGGTGACAAGCCAAGTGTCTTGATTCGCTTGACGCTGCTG	64.3
AAAGCGGTAATTTGCGAAGTGGGTGCAGATATCTATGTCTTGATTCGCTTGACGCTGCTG	77.8
AGAATCAAAGCTCACCACGTCATGGTTGCGAAAGCCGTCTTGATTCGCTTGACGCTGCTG	67.7
ATCGATGCTTTTGGCCACATGGGAGCCATATGCCATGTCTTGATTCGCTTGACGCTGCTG	90.8
CATACCCAACCTTGAACAGTGGGTGAAGATATTTGTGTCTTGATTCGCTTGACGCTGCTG	78.9
CGGGGTTAAGTTTGTGCCGTGGGTGGCTTGCAGCAGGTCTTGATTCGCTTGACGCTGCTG	54.3
CTTCTGTAAATTTGGAGGGTGGGTGGACGCGCCCCGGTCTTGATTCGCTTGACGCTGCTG	73.6

Set 5
Target: Replicase polyprotein 1ab, main protease (rep, Severe acute respiratory syndrome coronavirus 2, UniProt P0DTD1)
Effect on: enzyme activity
Action: inhibitor
Concentration: 20 µM
Setting: primary screen
SMILES	inhibition [%]
COC(=O)/C=C/c1cc(O)ccc1O	68.6
Oc1ccc2c3c1O[C@H]1c4[nH]c5ccccc5c4C[C@@]4(O)C(C2)N(CC2CC2)CC[C@]314	33.8
CCCCC/C=C/C/C=C/C/C=C/C/C=C/CCCC(=O)O	37.9
Oc1c(CN2CCCC2)cc(COCc2ccccc2)c2cccnc12	28.7

Set 6
Cell line: HEK-293T
Effect on: pseudovirus infection
Organism: VSV pseudotyped with SARS-CoV-2 spike
Concentration: 10 µM
Time: 16 h
Relative to: vehicle-treated
SMILES	GFP-positive cells [%]
C=CC(N)CCC(=O)O (centres unmarked)	106
CCN(CC)C(=O)[C@@]1(c2ccccc2)C[C@H]1CN	77.4
N=C(N)N/N=C/c1c(Cl)cccc1Cl	75.4

Excerpt of the above (set 2):
Oligonucleotide	E-score
CACGTGAC	-0.171
CGCCTACC	0.211
AGCTTTGA	-0.0905
AGTTCATG	-0.208
